# Measured values of several laboratories.
# Each line is one published result; not all experiments were run side by side. “And” joins repeats or separate records; there may be more than shown. Numbers after ± are the reported error.
# qscR DNA-bound dimer: qscR, DNA-bound dimer (Pseudomonas aeruginosa, UniProt G3XD77)
# BCAR3 SH2 domain: Breast cancer anti-estrogen resistance protein 3, SH2 domain (BCAR3, Homo sapiens, UniProt O75815)
# UniProt O75815, sequence (whole entry, looked up): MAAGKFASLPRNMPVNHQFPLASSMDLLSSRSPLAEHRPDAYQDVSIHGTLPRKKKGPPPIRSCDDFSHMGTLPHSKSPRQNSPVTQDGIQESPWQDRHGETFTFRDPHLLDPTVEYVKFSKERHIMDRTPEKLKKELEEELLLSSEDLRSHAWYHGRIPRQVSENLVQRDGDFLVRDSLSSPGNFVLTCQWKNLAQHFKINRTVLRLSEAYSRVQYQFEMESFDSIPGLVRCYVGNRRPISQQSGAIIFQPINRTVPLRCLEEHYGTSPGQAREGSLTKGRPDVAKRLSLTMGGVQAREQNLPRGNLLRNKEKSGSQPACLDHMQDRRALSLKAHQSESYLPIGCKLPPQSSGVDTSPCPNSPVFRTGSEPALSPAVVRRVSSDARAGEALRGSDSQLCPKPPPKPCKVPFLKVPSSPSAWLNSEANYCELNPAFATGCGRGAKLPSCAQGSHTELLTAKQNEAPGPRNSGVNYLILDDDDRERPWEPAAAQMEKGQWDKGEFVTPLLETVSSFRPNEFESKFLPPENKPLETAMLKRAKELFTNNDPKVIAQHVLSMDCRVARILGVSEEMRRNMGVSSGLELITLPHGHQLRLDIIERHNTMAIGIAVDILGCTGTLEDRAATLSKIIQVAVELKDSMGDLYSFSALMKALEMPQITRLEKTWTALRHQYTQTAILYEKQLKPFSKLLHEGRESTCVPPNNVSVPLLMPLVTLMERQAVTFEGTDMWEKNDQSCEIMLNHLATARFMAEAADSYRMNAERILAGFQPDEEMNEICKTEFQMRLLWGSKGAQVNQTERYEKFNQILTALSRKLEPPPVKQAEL
# UniProt P02786, sequence (whole entry, looked up): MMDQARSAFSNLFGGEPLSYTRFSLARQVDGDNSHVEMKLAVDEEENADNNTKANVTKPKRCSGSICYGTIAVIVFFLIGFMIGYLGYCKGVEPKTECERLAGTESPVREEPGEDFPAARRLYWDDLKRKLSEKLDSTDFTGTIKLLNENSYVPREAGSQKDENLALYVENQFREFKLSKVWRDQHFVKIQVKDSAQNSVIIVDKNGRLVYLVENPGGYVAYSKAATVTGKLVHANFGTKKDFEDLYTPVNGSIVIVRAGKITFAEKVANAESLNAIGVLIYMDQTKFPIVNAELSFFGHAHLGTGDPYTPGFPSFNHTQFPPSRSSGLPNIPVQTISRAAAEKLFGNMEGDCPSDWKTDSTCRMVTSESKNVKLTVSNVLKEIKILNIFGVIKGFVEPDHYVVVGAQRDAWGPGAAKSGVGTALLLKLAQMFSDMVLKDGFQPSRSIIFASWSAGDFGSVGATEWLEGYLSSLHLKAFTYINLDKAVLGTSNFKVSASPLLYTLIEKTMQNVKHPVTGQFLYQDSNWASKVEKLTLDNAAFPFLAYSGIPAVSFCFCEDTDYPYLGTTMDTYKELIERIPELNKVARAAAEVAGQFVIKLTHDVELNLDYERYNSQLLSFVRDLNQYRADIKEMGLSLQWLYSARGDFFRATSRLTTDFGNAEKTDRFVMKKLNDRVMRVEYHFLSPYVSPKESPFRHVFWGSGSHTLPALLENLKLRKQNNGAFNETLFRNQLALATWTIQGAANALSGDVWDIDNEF
# UniProt Q9HCP0, sequence (whole entry, looked up): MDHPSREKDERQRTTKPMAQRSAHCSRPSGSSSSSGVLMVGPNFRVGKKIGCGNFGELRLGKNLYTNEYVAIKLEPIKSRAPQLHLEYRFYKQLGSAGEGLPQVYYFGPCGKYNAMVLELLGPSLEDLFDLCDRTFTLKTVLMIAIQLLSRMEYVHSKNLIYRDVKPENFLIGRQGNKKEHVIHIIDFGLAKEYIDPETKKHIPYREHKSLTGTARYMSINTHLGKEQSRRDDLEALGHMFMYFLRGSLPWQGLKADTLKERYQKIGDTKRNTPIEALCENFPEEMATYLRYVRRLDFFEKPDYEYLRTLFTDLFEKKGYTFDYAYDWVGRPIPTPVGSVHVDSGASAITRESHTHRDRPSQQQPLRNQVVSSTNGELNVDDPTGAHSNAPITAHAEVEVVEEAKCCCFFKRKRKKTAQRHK
# UniProt Q06151, sequence (whole entry, unmodified, looked up): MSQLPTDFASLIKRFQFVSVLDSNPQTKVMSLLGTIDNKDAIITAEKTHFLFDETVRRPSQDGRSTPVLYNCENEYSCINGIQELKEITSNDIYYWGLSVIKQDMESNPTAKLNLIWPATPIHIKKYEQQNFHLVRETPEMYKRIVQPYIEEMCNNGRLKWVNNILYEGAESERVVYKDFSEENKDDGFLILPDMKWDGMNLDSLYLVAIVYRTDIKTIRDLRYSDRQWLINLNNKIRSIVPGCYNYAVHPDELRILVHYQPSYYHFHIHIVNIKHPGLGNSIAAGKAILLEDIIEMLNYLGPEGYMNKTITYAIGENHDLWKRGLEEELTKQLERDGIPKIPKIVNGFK
# UniProt P42684, sequence (whole entry, looked up): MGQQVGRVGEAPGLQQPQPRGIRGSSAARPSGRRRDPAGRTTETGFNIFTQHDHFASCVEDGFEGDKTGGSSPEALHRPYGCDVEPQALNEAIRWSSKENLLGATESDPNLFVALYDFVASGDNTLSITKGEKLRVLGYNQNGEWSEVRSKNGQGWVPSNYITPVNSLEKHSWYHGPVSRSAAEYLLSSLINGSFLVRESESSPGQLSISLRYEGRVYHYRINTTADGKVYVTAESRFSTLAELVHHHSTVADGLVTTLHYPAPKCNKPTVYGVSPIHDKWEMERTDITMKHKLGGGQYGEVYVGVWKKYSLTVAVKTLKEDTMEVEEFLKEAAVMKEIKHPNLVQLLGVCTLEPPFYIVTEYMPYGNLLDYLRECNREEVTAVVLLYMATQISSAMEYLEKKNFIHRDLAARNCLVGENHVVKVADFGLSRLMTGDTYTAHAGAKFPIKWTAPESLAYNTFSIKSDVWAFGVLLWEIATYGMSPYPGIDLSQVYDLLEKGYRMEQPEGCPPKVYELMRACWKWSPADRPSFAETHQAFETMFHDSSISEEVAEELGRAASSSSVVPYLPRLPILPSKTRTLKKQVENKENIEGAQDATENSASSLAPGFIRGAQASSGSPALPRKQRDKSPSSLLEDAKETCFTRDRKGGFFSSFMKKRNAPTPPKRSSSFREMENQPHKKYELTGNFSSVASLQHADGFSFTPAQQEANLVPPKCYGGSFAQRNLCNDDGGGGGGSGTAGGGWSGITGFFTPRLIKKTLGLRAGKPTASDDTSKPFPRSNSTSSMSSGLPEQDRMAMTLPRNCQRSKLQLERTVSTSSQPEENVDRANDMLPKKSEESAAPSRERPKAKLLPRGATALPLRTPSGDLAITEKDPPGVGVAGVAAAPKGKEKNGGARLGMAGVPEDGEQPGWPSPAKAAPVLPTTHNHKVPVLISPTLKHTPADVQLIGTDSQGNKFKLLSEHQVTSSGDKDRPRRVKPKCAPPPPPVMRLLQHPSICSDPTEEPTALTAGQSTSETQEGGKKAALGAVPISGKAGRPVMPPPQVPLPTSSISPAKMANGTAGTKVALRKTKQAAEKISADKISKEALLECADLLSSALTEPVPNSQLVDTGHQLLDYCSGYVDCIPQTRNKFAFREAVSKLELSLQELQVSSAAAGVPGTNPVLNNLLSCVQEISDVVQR
# UniProt P05108, sequence (whole entry, looked up): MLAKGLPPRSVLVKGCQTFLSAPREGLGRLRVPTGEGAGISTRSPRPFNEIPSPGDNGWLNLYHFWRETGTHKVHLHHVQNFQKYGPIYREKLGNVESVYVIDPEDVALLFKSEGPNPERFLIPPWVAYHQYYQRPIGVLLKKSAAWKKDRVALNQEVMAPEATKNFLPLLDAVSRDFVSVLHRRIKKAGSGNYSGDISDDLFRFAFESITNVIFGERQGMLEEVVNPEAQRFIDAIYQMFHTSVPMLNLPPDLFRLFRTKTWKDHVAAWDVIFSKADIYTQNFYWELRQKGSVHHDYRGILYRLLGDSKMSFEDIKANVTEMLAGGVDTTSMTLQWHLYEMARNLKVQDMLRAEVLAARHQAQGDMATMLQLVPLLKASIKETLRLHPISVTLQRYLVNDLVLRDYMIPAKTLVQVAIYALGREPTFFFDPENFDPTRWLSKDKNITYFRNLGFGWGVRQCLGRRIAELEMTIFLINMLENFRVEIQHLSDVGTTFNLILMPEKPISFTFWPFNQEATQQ
# UniProt P05046, sequence (whole entry, looked up): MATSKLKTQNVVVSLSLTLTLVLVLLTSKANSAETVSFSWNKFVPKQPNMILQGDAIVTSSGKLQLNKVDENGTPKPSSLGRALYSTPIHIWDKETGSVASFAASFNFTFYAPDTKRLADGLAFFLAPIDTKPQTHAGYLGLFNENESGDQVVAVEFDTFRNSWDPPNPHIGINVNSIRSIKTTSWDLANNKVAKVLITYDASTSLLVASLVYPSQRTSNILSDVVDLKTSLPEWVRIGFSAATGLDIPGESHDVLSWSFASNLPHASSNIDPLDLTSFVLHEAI
# UniProt Q08881, sequence (whole entry, looked up): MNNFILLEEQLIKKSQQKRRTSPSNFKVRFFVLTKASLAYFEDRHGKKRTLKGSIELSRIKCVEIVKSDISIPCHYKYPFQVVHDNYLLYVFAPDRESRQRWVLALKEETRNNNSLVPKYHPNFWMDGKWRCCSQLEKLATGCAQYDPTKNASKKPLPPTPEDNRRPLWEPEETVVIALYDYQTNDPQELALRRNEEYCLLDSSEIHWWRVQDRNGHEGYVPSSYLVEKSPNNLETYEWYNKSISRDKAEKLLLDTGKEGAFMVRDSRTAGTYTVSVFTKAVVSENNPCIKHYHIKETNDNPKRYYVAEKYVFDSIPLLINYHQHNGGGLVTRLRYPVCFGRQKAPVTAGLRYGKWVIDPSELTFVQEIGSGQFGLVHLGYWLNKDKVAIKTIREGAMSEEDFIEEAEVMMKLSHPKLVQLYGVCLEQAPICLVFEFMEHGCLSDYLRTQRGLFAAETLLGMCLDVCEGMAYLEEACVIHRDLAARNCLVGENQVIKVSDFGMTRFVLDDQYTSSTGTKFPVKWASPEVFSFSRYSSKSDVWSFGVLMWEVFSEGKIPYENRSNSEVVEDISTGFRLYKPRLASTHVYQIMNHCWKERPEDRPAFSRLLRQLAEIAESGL
Compound,target,test,system,setting,Kd
CC[C@H](C)[C@H](NC(=O)[C@H](CCC(N)=O)NC(=O)[C@H](Cc1c[nH]cn1)NC(=O)c1ccc2c(c1)C(=O)OC21c2ccc(N(C)C)cc2Oc2cc(N(C)C)ccc21)C(=O)N[C@@H](CO)C(=O)N[C@@H](CC(C)C)C(=O)N[C@@H](CC(=O)O)C(=O)N[C@@H](CC(N)=O)C(=O)N1CCC[C@H]1C(=O)N[C@@H](CC(=O)O)C(=O)N[C@@H](Cc1ccc(OP(=O)(O)O)cc1)C(=O)N[C@@H](CCC(N)=O)C(=O)N[C@@H](CCC(N)=O)C(=O)N[C@@H](CC(=O)O)C(=O)N[C@@H](Cc1ccccc1)C(=O)N[C@@H](Cc1ccccc1)C(=O)N1CCC[C@H]1C(=O)N[C@@H](CCCCN)C(=O)N[C@@H](CC(=O)O)C(=O)O,"Tyrosine-protein kinase ABL2, SH2 domain (ABL2, Homo sapiens, UniProt P42684)",binding,,,0.49 µM
N=C(N)NCCC[C@H](N)C(=O)O,"uncharacterized protein (Pelagibacter ubique, UniProt Q4FLC2)","binding, isothermal titration calorimetry",Candidatus Pelagibacter ubique,"two-sets-of-sites model, site 1, added: E108A mutant competing protein",3.24e-05 µM and 1.89e-05 µM and 3.68e-05 µM
O=C(O)CNC(=O)c1cccnc1,"Ubiquitin carboxyl-terminal hydrolase 5, ZnF-UBD domain (USP5, Homo sapiens, UniProt P45974)",,,,> 1000 µM
Nc1ncnc2c1ncn2[C@@H]1O[C@H](COP(=O)(O)OP(=O)(O)OP(=O)(O)O)[C@@H](O)[C@H]1O,"matB (Rhodopseudomonas palustris, UniProt Q6ND88, C106A/K488A/Q457C/R286C)",binding,,"pH 7.0, 100 mM NaCl",6.4 ± 0.6 µM
CC(C)CC[C@@H](O)[C@@H](C)[C@H]1CC[C@H]2[C@@H]3CC=C4C[C@@H](O)CC[C@]4(C)[C@H]3CC[C@]12C,"CYP11A1 (Homo sapiens, UniProt P05108)",substrate binding,,added: adrenodoxin 40-fold excess,0.078 µM
CCCCCCCCCC(=O)CC(=O)Nc1ccccc1,qscR DNA-bound dimer,"ligand binding, FRET displacement",,protein with DNA,0.283 µM
CC[C@H](C)[C@H](NC(=O)c1ccc2c(c1)C(=O)OC21c2ccc(N(C)C)cc2Oc2cc(N(C)C)ccc21)C(=O)N[C@@H](CCC(=O)O)C(=O)N[C@@H](CO)C(=O)N[C@@H](CO)C(=O)N[C@@H](CC(N)=O)C(=O)N[C@@H](Cc1ccc(O)cc1)C(=O)N[C@@H](CCSC)C(=O)N[C@@H](C)C(=O)N1CCC[C@H]1C(=O)N[C@@H](Cc1ccc(OP(=O)(O)O)cc1)C(=O)N[C@@H](CC(=O)O)C(=O)N[C@@H](CC(N)=O)C(=O)N[C@@H](Cc1ccc(O)cc1)C(=O)N[C@H](C(=O)N1CCC[C@H]1C(=O)N[C@@H](CO)C(=O)N[C@@H](C)C(=O)N[C@@H](CC(=O)O)C(=O)O)C(C)C,BCAR3 SH2 domain,binding,,,1.32 µM
Nc1ncnc2c1ncn2[C@@H]1O[C@H](CO)[C@@H](OP(=O)(O)O)[C@H]1O,"Thermonuclease (nuc, Staphylococcus aureus, UniProt P00644)","binding, ligand-coupled folding kinetics",,"pH 7.0, 22 °C, 2.7 M urea",5000 µM
CSCC[C@H](NC(=O)[C@H](CC(=O)O)NC(=O)c1ccc2c(c1)C(=O)OC21c2ccc(N(C)C)cc2Oc2cc(N(C)C)ccc21)C(=O)N[C@@H](CO)C(=O)N[C@@H](CCCCN)C(=O)N[C@@H](CC(=O)O)C(=O)N[C@@H](CCC(=O)O)C(=O)N[C@@H](CO)C(=O)N[C@H](C(=O)N[C@@H](CC(=O)O)C(=O)N[C@@H](Cc1ccc(OP(=O)(O)O)cc1)C(=O)N[C@H](C(=O)N1CCC[C@H]1C(=O)N[C@@H](CCSC)C(=O)N[C@@H](CC(C)C)C(=O)N[C@@H](CC(=O)O)C(=O)N[C@@H](CCSC)C(=O)N[C@@H](CCCCN)C(=O)N[C@@H](CC(=O)O)C(=O)O)C(C)C)C(C)C,BCAR3 SH2 domain,binding,,,0.701 µM
CCCCCCCCCCCC(=O)N[C@H]1CCOC1=O,qscR DNA-bound dimer,"ligand binding, FRET displacement",,protein with DNA,0.000196 µM
CSCC[C@H](NC(=O)CNC(=O)[C@H](Cc1ccccc1)NC(=O)[C@H](CC(=O)O)NC(=O)CNC(=O)c1ccc2c(c1)C(=O)OC21c2ccc(N(C)C)cc2Oc2cc(N(C)C)ccc21)C(=O)N[C@@H](CO)C(=O)N[C@@H](CCCNC(=N)N)C(=O)N[C@@H](CC(=O)O)C(=O)N[C@H](C(=O)N[C@@H](Cc1ccc(OP(=O)(O)O)cc1)C(=O)N[C@@H](CO)C(=O)N[C@H](C(=O)N[C@@H](CC(=O)O)C(=O)N[C@@H](Cc1ccc(O)cc1)C(=O)N[C@@H](Cc1ccc(O)cc1)C(=O)N[C@@H](CCCNC(=N)N)C(=O)N[C@H](C(=O)N[C@@H](CC(=O)O)C(=O)O)C(C)C)[C@@H](C)O)C(C)C,"Tyrosine-protein kinase ITK/TSK, SH2 domain (ITK, Homo sapiens, UniProt Q08881)",binding,,,0.406 µM
CC(=O)N[C@H]1[C@@H](O[C@H](C)[C@H](NC(C)=O)C(=O)N[C@H](C(=O)N[C@H](C(=O)NCC(=O)O)[C@@H](C)O[C@H]2O[C@H](CO)[C@H](O)[C@H](O)[C@H]2NC(C)=O)[C@@H](C)O[C@H]2O[C@H](CO)[C@H](O)[C@H](O)[C@H]2NC(C)=O)O[C@H](CO)[C@H](O)[C@@H]1O,"LE1 (Glycine max, UniProt P05046)",glycan microarray,,20 glycans per BSA,0.001 ± 0.0001 µM
CC[C@H](C)[C@H](NC(=O)[C@H](Cc1ccc(OP(=O)(O)O)cc1)NC(=O)[C@H](CCC(=O)O)NC(=O)[C@H](Cc1c[nH]cn1)NC(=O)CNC(=O)[C@H](CC(=O)O)NC(=O)[C@H](CO)NC(=O)[C@H](CO)NC(=O)[C@@H](NC(=O)[C@H](CO)NC(=O)[C@H](CCC(=O)O)NC(=O)c1ccc2c(c1)C(=O)OC21c2ccc(N(C)C)cc2Oc2cc(N(C)C)ccc21)C(C)C)C(=O)N[C@@H](Cc1ccc(O)cc1)C(=O)N[C@H](C(=O)N[C@@H](CC(=O)O)C(=O)N1CCC[C@H]1C(=O)N[C@@H](CCSC)C(=O)N[C@@H](CCC(N)=O)C(=O)N[C@@H](CC(=O)O)C(=O)O)C(C)C,BCAR3 SH2 domain,binding,,,1.54 µM
CC[C@H](CO)Nc1nc(NCc2ccc(-c3ccccn3)cc2)c2ncn(C(C)C)c2n1,"CSNK1G1 (Homo sapiens, UniProt Q9HCP0)",competition affinity chromatography,SH-SY5Y cell extract,,12.5 µM
CC(=O)N[C@@H]1[C@@H](O)[C@@H](O)[C@@H](CO)O[C@@H]1O,Vicia villosa lectin,glycan microarray,,4 glycans per BSA,0.099 ± 0.024 µM
CC[C@@H](C)[C@@H](NC(=O)[C@@H](Cc1ccc(O)cc1)NC(=O)[C@H]1CCCN1C(=O)[C@@H](CCCNC(=N)N)NC(=O)[C@H](N)Cc1c[nH]cn1)C(=O)N[C@H](C)C(=O)N[C@H](Cc1c[nH]cn1)C(=O)N[C@H](CCCNC(=N)N)C(=O)N[C@@H](C(=O)N[C@H](Cc1ccc(O)cc1)C(=O)N[C@H](CO)C(=O)N[C@H](Cc1ccccc1)C(N)=O)C(C)C,"TFRC (Homo sapiens, UniProt P02786)",microscale thermophoresis,,"2 h, OFP-tagged protein",4.4 ± 0.8 µM
CCCCc1oc2ccccc2c1C(=O)c1cc(I)c(OCCN(CC)CC)c(I)c1,"KCNH1 (Homo sapiens, UniProt O95259)","potassium current, inhibitor, whole-cell patch clamp",HEK293 stably expressing,,0.27 ± 0.02 µM
C[n+]1cn([C@@H]2O[C@H](COP(=O)([O-])O)[C@@H](O)[C@H]2O)c2nc(N)[nH]c(=O)c21,"m7GpppX diphosphatase (DCS1, Saccharomyces cerevisiae, UniProt Q06151, H268N)","binding, single-step, isothermal titration calorimetry",,DcpS H268N,1.05 µM

# Some of these lines once more:
Compound,target,test,system,setting,Kd
Nc1ncnc2c1ncn2[C@@H]1O[C@H](COP(=O)(O)OP(=O)(O)OP(=O)(O)O)[C@@H](O)[C@H]1O,"matB (Rhodopseudomonas palustris, UniProt Q6ND88, C106A/K488A/Q457C/R286C)",binding,,"pH 7.0, 100 mM NaCl",6.4 ± 0.6 µM
